Measured values from different studies.
Each numbered part is a random draw from the data of one study; scales do not carry over between parts. “And” joins repeats or separate records; there may be more than shown.
UniProt Q9UQM7, sequence (whole entry, looked up): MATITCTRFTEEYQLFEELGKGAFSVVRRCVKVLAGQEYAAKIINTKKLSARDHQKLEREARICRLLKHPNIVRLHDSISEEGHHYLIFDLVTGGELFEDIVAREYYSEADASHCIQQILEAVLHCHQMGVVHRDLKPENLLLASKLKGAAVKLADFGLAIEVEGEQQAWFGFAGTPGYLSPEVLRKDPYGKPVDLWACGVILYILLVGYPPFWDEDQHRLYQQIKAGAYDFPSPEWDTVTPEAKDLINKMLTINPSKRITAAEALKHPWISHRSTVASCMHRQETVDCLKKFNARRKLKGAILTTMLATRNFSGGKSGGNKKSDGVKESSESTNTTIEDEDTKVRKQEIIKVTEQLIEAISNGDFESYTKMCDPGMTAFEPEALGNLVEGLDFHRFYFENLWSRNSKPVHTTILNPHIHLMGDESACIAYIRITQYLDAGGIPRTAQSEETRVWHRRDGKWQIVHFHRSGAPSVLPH

Sample 1
Target: His6 tag
Method: AlphaScreen counter screen
Concentration: concentration not given
Compound	inhibition
O=C(CSc1ccc2nnc(-c3ccc(Cl)cc3)n2n1)Nc1cccc(F)c1	-2.65%
O=S(=O)(c1cccc2cnccc12)N1CCCNCC1	9.9% and 4.1%
CCC(C)(C)C1CCc2sc3nc[nH]c(=O)c3c2C1 (stereo not shown)	15.6%
C[C@@H]1CCN(C(=O)CC#N)C[C@@H]1N(C)c1ncnc2[nH]ccc12	-3.7%
O=c1[nH]cnc2cccc(Cl)c12	3.1%
Cn1c(=O)n(-c2ccc(C(C)(C)C#N)cc2)c2c3cc(-c4cnc5ccccc5c4)ccc3ncc21	9.25%

Sample 2
Host: mouse
Medium: microsomes or S9
Concentration: 2 µM
Time: 0.5 h
Structure (SMILES)	remaining compound [%]
O=C(Nc1ncc(Cl)cc1Cl)c1cc2ncccn2n1	59.9
Nc1c(Br)cc(O)cc1Br	50.5
CCOC1CC(NC(=O)c2nnn(C3CCNCC3)c2C)C12CCC2 (stereo not shown)	0.518
CC(C)[C@@H](C(=O)Nc1n[nH]c2cccc(F)c12)N1Cc2ccccc2C1=O	1.64

Sample 3
Target: Alpha-1D adrenergic receptor (ADRA1D, Homo sapiens, UniProt P25100)
UniProt P25100, sequence (whole entry, looked up): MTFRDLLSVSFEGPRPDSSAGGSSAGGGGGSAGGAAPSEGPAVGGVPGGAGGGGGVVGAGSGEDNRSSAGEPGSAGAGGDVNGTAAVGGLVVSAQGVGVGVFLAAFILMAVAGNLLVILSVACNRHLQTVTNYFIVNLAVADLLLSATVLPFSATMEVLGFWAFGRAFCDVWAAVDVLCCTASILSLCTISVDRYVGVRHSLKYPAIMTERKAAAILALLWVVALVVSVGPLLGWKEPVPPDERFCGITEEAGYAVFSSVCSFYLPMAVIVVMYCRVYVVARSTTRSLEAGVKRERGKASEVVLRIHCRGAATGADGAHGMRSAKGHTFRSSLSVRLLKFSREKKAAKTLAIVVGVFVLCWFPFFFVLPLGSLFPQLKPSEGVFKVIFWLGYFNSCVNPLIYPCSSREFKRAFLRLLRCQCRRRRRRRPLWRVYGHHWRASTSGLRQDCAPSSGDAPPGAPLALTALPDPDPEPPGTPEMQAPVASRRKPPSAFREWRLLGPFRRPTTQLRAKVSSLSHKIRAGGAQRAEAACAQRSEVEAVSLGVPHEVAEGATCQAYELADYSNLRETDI
Observed: ligand displacement
Concentration: 10 µM
SMILES	inhibition
Nc1cnc(N2CCc3cc(S(=O)(=O)Nc4c(F)cc(Cl)cc4F)cc(N4CCCC4=O)c32)nc1	-2.31%
CCc1ccccc1C(=O)Nc1n[nH]c2c(C)c(F)c(C3C(C#N)=C(C)N(C)C(C)=C3C#N)cc12	2.75%
CCOc1ccc(S(=O)(=O)Nc2ccc(Cl)cc2C#Cc2cnc(C(=O)O)cc2OC)c2ncccc12	20.8%
Cn1nc(C(=O)NCc2ccc(C(=O)O)cc2)cc1-c1ccc2[nH]ccc2c1	-18.8%
COCCOc1nc(-c2ccc(Cl)nc2)nc2c1CN(C(=O)c1ncn3ccccc13)CC2	-4.48%
Nc1nc(NCc2ccccc2)nc(-c2ccccc2CO)n1	4.63%
O=C1NC(c2ccccn2)Sc2ccccc21 (stereo not shown)	-18.5%
c1ccc(C2CCN(c3cnc4c(N5CCOCC5)nccn34)CC2)cc1	10.7%
CN1CCN(c2ccnc(NCCc3ccccc3)n2)CC1	26%
Cc1ccc(-c2cnc([C@@]3(O)CC[C@H](C(=O)O)C(C)(C)C3)s2)cc1Nc1cccc(C(F)(F)F)n1	-2.32%
C[C@H](c1ccnc(Nc2nc3ccc(-c4cc(N(C)C)ncn4)cc3[nH]2)c1)N1CCN(C(=O)CC(F)(F)F)CC1	20.2%

Other studies, line by line
Structure (SMILES)	target	observed	action	concentration	quantity	value
COc1c2ccoc2c(OCC(O)C(C)(C)O)c2oc(=O)ccc12 (racemic)	Calcium/calmodulin-dependent protein kinase type II subunit alpha (CAMK2A, Homo sapiens, UniProt Q9UQM7)	enzyme activity	inhibitor	10 µM	inhibition	27%

A few entries again (other studies, line by line):
Structure (SMILES)	target	observed	action	concentration	quantity	value
COc1c2ccoc2c(OCC(O)C(C)(C)O)c2oc(=O)ccc12 (racemic)	Calcium/calmodulin-dependent protein kinase type II subunit alpha (CAMK2A, Homo sapiens, UniProt Q9UQM7)	enzyme activity	inhibitor	10 µM	inhibition	27%
